Published values collected from several papers.
Parts stem from different laboratories: compare values within a part only.

Block 1 — technique: protein-binding microarray; molecule type: double-stranded DNA, one strand shown; medium: in vitro; tested at: 940 nM top; notes: 60-bp whole probe; with: salmon DNA 0.4 mg/ml; relative to: random background probes; reading: higher = stronger binding
Target: Interferon regulatory factor 5, full length, phosphomimetic (IRF5, Homo sapiens, UniProt Q13568-2, residues 1-514, S451D/S453D/S456D/S462D)
Strand	fitted relative affinity
GCCTAGCACTCATGTGTAGGTCTTAAACTGTGCTAGGTCTTGATTCGCTTGACGCTGCTG	-0.697 z-score
GCCTAGCACTTAGGTCTCGGACTGGGTTAGTGCTAGGTCTTGATTCGCTTGACGCTGCTG	1.04 z-score
GCCTAGCACGACGGTTTCGTTTTCCTGACGTGCTAGGTCTTGATTCGCTTGACGCTGCTG	9 z-score
GCCTAGCACTTAGGATTCGGACTGGGTTAGTGCTAGGTCTTGATTCGCTTGACGCTGCTG	-0.0722 z-score

Block 2 — technique: universal PBM; molecule type: double-stranded DNA, one strand shown; medium: in vitro; tested at: 600 nM; reading: higher = stronger binding
Target: Sal-like protein 4, full length isoform A (SALL4, Homo sapiens, UniProt Q9UJQ4, residues 1-1053)
UniProt Q9UJQ4, sequence (whole entry, looked up): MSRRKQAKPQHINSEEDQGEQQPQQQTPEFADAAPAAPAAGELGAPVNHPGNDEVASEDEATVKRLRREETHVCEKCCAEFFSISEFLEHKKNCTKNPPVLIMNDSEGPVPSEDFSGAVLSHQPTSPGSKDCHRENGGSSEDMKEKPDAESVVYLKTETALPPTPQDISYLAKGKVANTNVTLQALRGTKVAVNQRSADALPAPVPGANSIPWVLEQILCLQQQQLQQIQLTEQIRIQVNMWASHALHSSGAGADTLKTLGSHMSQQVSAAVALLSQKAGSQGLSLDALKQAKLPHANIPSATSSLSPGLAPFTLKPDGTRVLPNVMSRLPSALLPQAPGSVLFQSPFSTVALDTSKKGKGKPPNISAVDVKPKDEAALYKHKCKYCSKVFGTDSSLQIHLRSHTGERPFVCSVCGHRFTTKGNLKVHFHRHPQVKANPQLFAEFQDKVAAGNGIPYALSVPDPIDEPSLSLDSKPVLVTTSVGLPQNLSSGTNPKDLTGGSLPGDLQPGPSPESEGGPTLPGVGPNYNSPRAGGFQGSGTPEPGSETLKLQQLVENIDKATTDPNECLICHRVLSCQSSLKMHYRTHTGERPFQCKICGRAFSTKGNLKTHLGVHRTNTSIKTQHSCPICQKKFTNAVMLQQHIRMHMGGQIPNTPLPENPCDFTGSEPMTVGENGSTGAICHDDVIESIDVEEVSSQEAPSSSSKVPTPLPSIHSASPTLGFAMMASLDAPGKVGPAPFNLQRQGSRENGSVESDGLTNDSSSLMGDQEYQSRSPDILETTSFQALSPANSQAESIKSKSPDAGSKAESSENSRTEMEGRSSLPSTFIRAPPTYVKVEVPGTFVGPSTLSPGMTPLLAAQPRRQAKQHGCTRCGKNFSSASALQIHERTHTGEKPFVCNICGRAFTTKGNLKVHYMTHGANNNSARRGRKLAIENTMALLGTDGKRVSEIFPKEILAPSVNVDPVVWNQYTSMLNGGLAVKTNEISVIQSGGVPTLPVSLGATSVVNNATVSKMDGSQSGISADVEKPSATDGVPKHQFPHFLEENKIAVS
Notes: 8-mer, flanks averaged, mean of replicates
Strand	E-score
CCAAGTCG	-0.126
TCAACGGA	-0.0485
TAGGGACA	0.0612
GCCTACTA	-0.0731
CGAAACGC	-0.245

Block 3 — technique: protein binding microarray; molecule type: double-stranded DNA, one strand shown; medium: in vitro; tested at: not given; relative to: not given; reading: higher = stronger binding
Target: Histone acetyltransferase KAT6A, both winged helices, GST fusion (KAT6A, Homo sapiens, UniProt Q92794, residues 1-181)
Notes: 8-mer, flanks averaged, mean of 2 arrays, mostly near background
Construct (chain): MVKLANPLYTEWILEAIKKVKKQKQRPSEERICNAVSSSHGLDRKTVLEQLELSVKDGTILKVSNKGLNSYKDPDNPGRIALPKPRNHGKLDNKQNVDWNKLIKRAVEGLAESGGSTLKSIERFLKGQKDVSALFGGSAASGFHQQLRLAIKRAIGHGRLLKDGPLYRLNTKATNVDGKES
Strand	E-score
CACGATGC	0.0329
AATCACTG	-0.0877
TTGCCAAA	-0.121
AGCTTTGA	-0.103
CTCTATCA	-0.0881
ACGGGAGC	0.138
AAAATGAG	-0.0705
ACTCTATA	0.0997

Other studies, line by line
SMILES	cell line	setting	scale	quantity	value
COc1cc([C@@H]2c3cc4c(cc3[C@@H](O[C@@H]3O[C@@H]5CO[C@@H](c6cccs6)O[C@H]5[C@H](O)[C@H]3O)[C@H]3COC(=O)[C@H]23)OCO4)cc(OC)c1O	HEK-293T/ACE2	10 µM, 16 h	relative to: vehicle	viability	67.5%
